# Assay results from different studies.
# Parts stem from different laboratories: compare values within a part only. Positions count from the first letter of the parent shown.
# UniProt P63146, sequence (whole entry, looked up): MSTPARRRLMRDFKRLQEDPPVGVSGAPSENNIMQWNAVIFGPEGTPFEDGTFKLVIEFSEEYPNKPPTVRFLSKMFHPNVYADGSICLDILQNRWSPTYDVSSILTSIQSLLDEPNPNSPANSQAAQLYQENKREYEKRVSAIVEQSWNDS
# UniProt Q9Y2X8, sequence (whole entry, looked up): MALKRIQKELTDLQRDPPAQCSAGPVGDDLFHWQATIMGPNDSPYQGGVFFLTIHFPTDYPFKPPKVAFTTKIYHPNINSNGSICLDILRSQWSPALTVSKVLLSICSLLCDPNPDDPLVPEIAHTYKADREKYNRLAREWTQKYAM
# UniProt Q9H832, sequence (whole entry, looked up): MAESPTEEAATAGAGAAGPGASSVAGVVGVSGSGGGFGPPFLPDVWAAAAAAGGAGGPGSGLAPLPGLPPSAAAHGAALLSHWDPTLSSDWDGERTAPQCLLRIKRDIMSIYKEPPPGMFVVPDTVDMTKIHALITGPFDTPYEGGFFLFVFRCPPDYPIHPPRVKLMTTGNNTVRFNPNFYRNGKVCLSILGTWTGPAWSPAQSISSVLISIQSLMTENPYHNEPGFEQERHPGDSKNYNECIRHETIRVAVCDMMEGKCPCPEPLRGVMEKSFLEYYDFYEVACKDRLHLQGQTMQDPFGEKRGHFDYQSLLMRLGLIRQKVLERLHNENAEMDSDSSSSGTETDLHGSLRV
# UniProt P62253, sequence (whole entry, looked up): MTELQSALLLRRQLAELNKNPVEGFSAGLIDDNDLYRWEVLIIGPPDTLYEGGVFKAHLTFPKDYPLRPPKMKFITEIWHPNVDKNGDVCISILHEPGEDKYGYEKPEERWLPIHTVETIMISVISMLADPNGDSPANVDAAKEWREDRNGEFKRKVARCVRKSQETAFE
# UniProt P68036, sequence (whole entry, looked up): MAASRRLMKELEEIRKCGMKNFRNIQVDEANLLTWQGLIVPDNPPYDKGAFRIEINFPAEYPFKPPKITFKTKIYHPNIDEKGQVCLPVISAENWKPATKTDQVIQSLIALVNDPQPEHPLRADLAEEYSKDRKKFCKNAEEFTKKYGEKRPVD
# UniProt P51668, sequence (whole entry, looked up): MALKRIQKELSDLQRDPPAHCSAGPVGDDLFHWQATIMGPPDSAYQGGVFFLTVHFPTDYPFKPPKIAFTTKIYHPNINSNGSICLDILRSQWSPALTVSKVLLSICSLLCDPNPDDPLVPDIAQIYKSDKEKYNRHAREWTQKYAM
# UniProt O00762, sequence (whole entry, looked up): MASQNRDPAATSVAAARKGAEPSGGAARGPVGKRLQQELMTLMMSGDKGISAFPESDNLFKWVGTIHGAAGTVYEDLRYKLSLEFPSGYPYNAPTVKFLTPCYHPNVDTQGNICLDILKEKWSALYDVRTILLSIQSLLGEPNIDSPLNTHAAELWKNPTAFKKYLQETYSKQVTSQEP

# Study 1 — technique: RNA Bind-n-Seq; molecule type: RNA; medium: in vitro; tested at: 365 nM; reference: no-protein control; reading: higher = stronger binding
# Target: RNA binding protein fox-1 homolog 2, RRM domain, GST-SBP tag (RBFOX2, Homo sapiens, UniProt O43251-10, residues 100-194)
# Setting: natural RNA segment, single round, ends assumed
# All sequences stand within: GGGAGUUCUACAGUCCGACGAUC … UGGAAUUCUCGGGUGCCAA
# Target sequence (chain): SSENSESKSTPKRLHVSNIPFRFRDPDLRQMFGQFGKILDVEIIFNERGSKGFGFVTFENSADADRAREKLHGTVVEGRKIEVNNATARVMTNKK
Sequence,RBNS enrichment (R)
UAAUUGCUGUUGAAAGCAAAAAUGCUAAUAUUAAAAGUCACAGUGUUCUUUAUAUACAAUAAUGGAAAAAAAAAAAAGAGGCAAUUCCUCAAGGGCAUGAGCGGUGGAUA,0.649
GACUGGCAGCUUUUAUUUCAGUAUUAGCACAGCGUCUUGCCAGUGUUGGAGGCCAUGUAUUAUUUCAGUUCAACUGGAUGAAAUGUUAAAUAAACUCAGAAUGAAAAUAA,1.05
UCUAACCGCAAUAGUGACUCUGUGCUUGUCUGUUUAGUUCUGUGUAUAAAUGGAAUGUUGUGGAGAUGACCCCUCCCUGUGCCGGCUGGUUCCUCUCCCUUUUCCCCUGG,1.04
AGGAAGGCUUGGCUCCUGUCUUCCCAGACCCACCAUGCCUGGAGAGGUCAGGAUGGAACUACCUCAUUCGGCAAAUUAGCCCCAAAUUGAGCGCUGAAUCGUGUCCCAUG,0.297
CUAGUGAUCCCAGCCCAAGAGGUUCAGGGAAGUCUUAUGAAGGAUUUGUCUCAGCUGAGCCUGACAGGACAAGCAUAUAGAAAGACAAGAGGGGGAGAGAGCAGGGCAUU,0.879
GUUCACUGUCCAUAUAUAUGAUUUUACGGAAUUAUGAAUUUUUCUGAUGAGUGUUGUAUAGAUGAUUUGAAUUGAUAAAAGUAUUAGGGAUGAGGUUUGUACUUUCCUGA,0.517
CUGAGCUCCUCCCACCCUCCUCCAGGAACCUCCACAUCUCCAAAAAUCUCCCUGUUGACUCAGUGCCUCCUCGGCUUCCUUGGAAGCCCAGAGGGACUAUGAUCUGAUGG,0.39
UGACAGAACAGCACAUCCUGGCCAGCACCCCUGGCUGGAGUGGGUUAAAGGGACGAGUCUGCCUUCCUGGCUGUGACACGGGACCCCUUUUCUACAGACCUCAUCACUGG,0.199
UUGCAGCUCUCUGGGCUGUGACUCUGUUAAGAAGGUUUGCCAGCUUUCUGGCCCUUCCCCGCUCCUAGUUACUAGAUGACCAUACUCAUACUUGCAAAGGAGAGGAGAGA,0.26
AUAUCAUGGUGCCUACUGGAAGGGAAUGUAGAUGCUAUGCAUUUUGGAAAUAAUCUGCAUCUGUUAAACCUGCAGAAGUUUUUUAAUGCCACUUUAACACUAAUGCACUG,0.661
GCUAUUUCAAAUUUGGUUUUGUUACAUUAAGUUGACUAUCAAAUACACAAAAGAUUUUUUUUGCAUAUGUUUCCUUUGUUUAAAACCAGUUUCAUAAUUGGUUAUAUAUA,0.934
UCUUGUCCCAGCUUCUCCCCUGGGGGCCUGAGAGACCCUCACCUUCCUUCUGCCCAUCUUCCAUGUUGUAAAGGAACAGCCCCAGUGCACUGGGGGAGGGGAGGGAGUGA,0.239

# Study 2 — technique: universal PBM; molecule type: double-stranded DNA, one strand shown; medium: in vitro; tested at: 600 nM; reading: higher = stronger binding
# Target: Sal-like protein 4, full length isoform A (SALL4, Homo sapiens, UniProt Q9UJQ4, residues 1-1053)
# UniProt Q9UJQ4, sequence (whole entry, looked up): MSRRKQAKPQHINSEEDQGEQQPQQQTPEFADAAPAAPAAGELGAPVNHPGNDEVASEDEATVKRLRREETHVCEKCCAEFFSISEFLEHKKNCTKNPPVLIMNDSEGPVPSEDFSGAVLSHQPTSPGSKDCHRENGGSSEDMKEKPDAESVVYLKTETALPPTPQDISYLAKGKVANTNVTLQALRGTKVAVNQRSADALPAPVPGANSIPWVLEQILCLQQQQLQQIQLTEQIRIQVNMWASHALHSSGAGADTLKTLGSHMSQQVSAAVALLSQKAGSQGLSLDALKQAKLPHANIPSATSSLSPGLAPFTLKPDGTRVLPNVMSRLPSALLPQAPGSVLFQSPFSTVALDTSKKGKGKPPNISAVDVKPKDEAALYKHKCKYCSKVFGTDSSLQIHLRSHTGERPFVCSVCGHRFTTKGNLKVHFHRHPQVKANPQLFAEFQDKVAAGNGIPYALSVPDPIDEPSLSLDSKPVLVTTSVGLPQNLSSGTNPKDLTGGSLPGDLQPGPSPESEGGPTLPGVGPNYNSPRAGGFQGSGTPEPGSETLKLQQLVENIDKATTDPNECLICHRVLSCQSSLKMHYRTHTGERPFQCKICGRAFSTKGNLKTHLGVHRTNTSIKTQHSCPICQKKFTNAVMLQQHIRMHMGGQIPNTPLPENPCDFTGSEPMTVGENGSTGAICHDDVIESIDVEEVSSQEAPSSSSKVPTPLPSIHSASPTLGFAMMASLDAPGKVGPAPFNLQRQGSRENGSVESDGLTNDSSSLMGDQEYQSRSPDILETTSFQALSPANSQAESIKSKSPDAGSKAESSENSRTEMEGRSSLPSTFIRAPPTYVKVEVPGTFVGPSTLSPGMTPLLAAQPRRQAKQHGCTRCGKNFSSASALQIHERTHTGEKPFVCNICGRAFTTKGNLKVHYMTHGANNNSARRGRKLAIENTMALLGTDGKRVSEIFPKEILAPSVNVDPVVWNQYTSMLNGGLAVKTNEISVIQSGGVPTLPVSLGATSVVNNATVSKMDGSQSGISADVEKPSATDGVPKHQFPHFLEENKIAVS
# Setting: 8-mer, flanks averaged, mean of replicates
Sequence,E-score
AGCAGACG,-0.239
AGTACGTG,-0.115
GAAGTTTA,0.205
GAGTCACA,-0.0279
ATCCAAAG,0.0912
CGACACAA,-0.0861
ATTAAGAA,0.238
AAACCATC,0.0318
AAGCAATC,0.146
GACAAGGA,0.207
GAACATAA,0.291
AACATCCA,-0.0159
CATGCCAC,-0.0962
GACAACCA,0.0563
CGTGACCC,-0.269
CCTGTGAC,-0.156
CTCGGCAC,-0.33
AGCTTCGA,-0.14
GTGCCGGA,-0.186
ACGGTTAG,-0.195
ATTCGCGC,-0.0779
GAACGGGC,-0.199

# Study 3 — technique: RNAcompete; molecule type: RNA; medium: in vitro; tested at: 20 nM; setting: 7-mer, probes averaged, single round; reference: mean of 7-mers; reading: higher = stronger binding
# Target: PABPC1L2, full length, GST fusion (mouse, UniProt A0ABA7IW68)
# Residues (chain): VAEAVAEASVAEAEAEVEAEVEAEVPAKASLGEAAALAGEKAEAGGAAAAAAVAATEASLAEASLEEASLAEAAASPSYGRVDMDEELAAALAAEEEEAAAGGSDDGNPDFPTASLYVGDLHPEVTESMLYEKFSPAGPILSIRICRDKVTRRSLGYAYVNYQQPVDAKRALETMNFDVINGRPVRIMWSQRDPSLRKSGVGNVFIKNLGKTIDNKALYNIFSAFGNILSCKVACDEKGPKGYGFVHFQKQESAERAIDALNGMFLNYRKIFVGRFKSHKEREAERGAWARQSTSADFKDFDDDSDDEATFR
Sequence,7-mer Z-score
GAGGCGU,-0.0391
CUCAUCU,-0.336
GACAACA,0.448
GGUGUCG,-0.0844
UCUAGAC,-0.0391
AGUACCC,-0.351
CUCAGAG,-0.164
UGAAUAG,-0.186
UAAACCA,0.497
UGAUACU,-0.142
GUCCCGA,-0.249
CAACAAC,0.0551
AAUAUGA,0.367
AGACUAG,-0.128
UGGCUAG,-0.0699
UAAUAAU,-0.124
GUGGCAG,0.164
UCGACCU,-0.122
CGAAGUC,-0.264
UUUGUGG,-0.394
GAGAUGA,0.0515
UGCUAUG,-0.161
ACGCAAA,0.678
CAUAAUC,-0.0264
GUCUCGC,-0.423

# Study 4 — Molecule: B1 (DTX2 RING domain); technique: yeast two-hybrid; medium: yeast; setting: mostly zero background; reference: not given; reading: higher = stronger interaction
# B1: DTX2 RING domain (UniProt Q86UW9); chain EELKVPPDEDCIICMEKLSTASGYSDVTDSKAIGSLAVGHLTKCSHAFHLLCLLAMYCNGNKDGSLQCPSCKTIYGEKTGTQ
target,lacZ reporter activity
UBE2Z UBC core domain (UniProt Q9H832),0
UBE2C UBC core domain (UniProt O00762),0
UBE2D1 UBC core domain (UniProt P51668),0
UBE2G1 UBC core domain (UniProt P62253),0
UBE2L3 UBC core domain (UniProt P68036),0
UBE2I UBC core domain (UniProt P63279),0
UBE2D4 UBC core domain (UniProt Q9Y2X8),0
UBE2B UBC core domain (UniProt P63146),0

# Study 5 — target: DDIT3, bZIP domain (human); technique: DHFR protein complementation; medium: yeast; reference: wild-type JUN-FOS pair; reading: higher = stronger binding
# Setting: single substitutions, most at no-binding floor
# Parent: JUN, bZIP domain (human); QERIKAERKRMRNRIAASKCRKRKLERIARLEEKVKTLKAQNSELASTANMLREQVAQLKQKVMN; partner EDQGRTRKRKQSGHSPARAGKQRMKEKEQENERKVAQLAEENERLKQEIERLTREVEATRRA
Substitution,binding fitness [natural log]
N42E,-1.34
V56I,0.221
E54M,-0.0414
S43L,0.0709
L52Y,-1.04
R53W,-1.12
L59W,-0.326
E44K,-0.0824
S43Q,0.162
E44A,0.0524
L59A,0.0609
S47H,0.0966
E33W,-0.191
R53I,-0.606
R30P,-0.49
Q41N,-0.44
V56A,-0.103
K34W,0.00026
V35Q,-0.33
I28A,-0.00229
A57W,-0.131
A49M,-0.142
M51R,0.098
L38K,-1.25
K36T,-0.102

# Study 6 — technique: DHFR PCA, dose-response; medium: yeast; added: (+)-ABA, dose series; reading: lower = more sensitive
# Target: ABI1, truncated, D143A, DHFR fusion (Arabidopsis thaliana, UniProt P49597)
# Setting: Hill fit, not affinity, not high confidence
# Parent: PYL1, truncated, DHFR fusion (Arabidopsis thaliana, UniProt Q8VZS8); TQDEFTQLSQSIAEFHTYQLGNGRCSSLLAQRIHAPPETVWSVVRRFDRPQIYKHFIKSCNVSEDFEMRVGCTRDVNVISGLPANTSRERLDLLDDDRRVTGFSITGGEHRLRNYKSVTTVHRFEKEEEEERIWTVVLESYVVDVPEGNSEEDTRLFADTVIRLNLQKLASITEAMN
Substitution,ABA EC50 [µM]
T154K,28.6
P50V,143
C60Y,505
H16A,556
L91T,35.1
T135H,0.951
N177H,5.22
V40Q,63.8
F56R,535
K54D,2000
F103P,2.09
D153I,1670
N149G,93.1
S117L,1090
T135M,13
H110M,602
A35Y,649
G102L,2070
T135R,1.06
R113P,0.413
E139P,5.05
I162P,3.92
N114I,272
L28P,8.4
N85Q,3.27

# For quick reference, copied from above (study 1):
Sequence,RBNS enrichment (R)
AGGAAGGCUUGGCUCCUGUCUUCCCAGACCCACCAUGCCUGGAGAGGUCAGGAUGGAACUACCUCAUUCGGCAAAUUAGCCCCAAAUUGAGCGCUGAAUCGUGUCCCAUG,0.297
CUGAGCUCCUCCCACCCUCCUCCAGGAACCUCCACAUCUCCAAAAAUCUCCCUGUUGACUCAGUGCCUCCUCGGCUUCCUUGGAAGCCCAGAGGGACUAUGAUCUGAUGG,0.39
GUUCACUGUCCAUAUAUAUGAUUUUACGGAAUUAUGAAUUUUUCUGAUGAGUGUUGUAUAGAUGAUUUGAAUUGAUAAAAGUAUUAGGGAUGAGGUUUGUACUUUCCUGA,0.517
UGACAGAACAGCACAUCCUGGCCAGCACCCCUGGCUGGAGUGGGUUAAAGGGACGAGUCUGCCUUCCUGGCUGUGACACGGGACCCCUUUUCUACAGACCUCAUCACUGG,0.199
UCUUGUCCCAGCUUCUCCCCUGGGGGCCUGAGAGACCCUCACCUUCCUUCUGCCCAUCUUCCAUGUUGUAAAGGAACAGCCCCAGUGCACUGGGGGAGGGGAGGGAGUGA,0.239
GACUGGCAGCUUUUAUUUCAGUAUUAGCACAGCGUCUUGCCAGUGUUGGAGGCCAUGUAUUAUUUCAGUUCAACUGGAUGAAAUGUUAAAUAAACUCAGAAUGAAAAUAA,1.05
UCUAACCGCAAUAGUGACUCUGUGCUUGUCUGUUUAGUUCUGUGUAUAAAUGGAAUGUUGUGGAGAUGACCCCUCCCUGUGCCGGCUGGUUCCUCUCCCUUUUCCCCUGG,1.04
GCUAUUUCAAAUUUGGUUUUGUUACAUUAAGUUGACUAUCAAAUACACAAAAGAUUUUUUUUGCAUAUGUUUCCUUUGUUUAAAACCAGUUUCAUAAUUGGUUAUAUAUA,0.934
CUAGUGAUCCCAGCCCAAGAGGUUCAGGGAAGUCUUAUGAAGGAUUUGUCUCAGCUGAGCCUGACAGGACAAGCAUAUAGAAAGACAAGAGGGGGAGAGAGCAGGGCAUU,0.879
